Experimental data collected from several papers.
Numbered parts are unrelated; each lists some results of a single study. Substitutions count along the parent as printed.

Sample 1
Target: CRIPT, C-terminal peptide
Method: DHFR complementation, deep sequencing
Matrix: yeast
Setting: single substitutions, model-inferred values
Reference: wild type
Reading: higher = weaker binding
Starting sequence: ERBIN, PDZ domain 1 (human); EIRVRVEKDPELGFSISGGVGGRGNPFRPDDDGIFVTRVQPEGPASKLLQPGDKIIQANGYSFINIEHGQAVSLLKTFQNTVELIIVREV; partner TKNYKQTSV
| Variant | binding free energy change [kcal/mol] |
| --- | --- |
| V36F | 0.997 |
| R28C | 0.0489 |
| G24W | 1.91 |
| S62D | 0.09 |
| D32P | 0.00825 |
| T81P | 0.0767 |
| P29K | 0.244 |
| E11A | -0.121 |
| G33K | 0.632 |
| V4G | 0.921 |
| Q40N | 0.0955 |
| L84K | 1.04 |
| Q57Y | 0.121 |
| D31A | 0.817 |
| G21P | 0.293 |

Sample 2
Target: Interferon regulatory factor 7, full length, phosphomimetic (IRF7, Homo sapiens, UniProt Q92985, residues 1-503, S101K/S471D/S472D/S475D/S476D/S477D/S483D/S484D/S487D)
Method: protein-binding microarray
Form: double-stranded DNA, one strand shown
Matrix: in vitro
Concentration: 250 nM
Setting: 60-bp whole probe
Added: salmon DNA 0.4 mg/ml
Reference: random background probes
Reading: higher = stronger binding
All sequences stand within: GCCTAGCAC … GTCTTGATTCGCTTGACGCTGCTG
Target sequence (chain): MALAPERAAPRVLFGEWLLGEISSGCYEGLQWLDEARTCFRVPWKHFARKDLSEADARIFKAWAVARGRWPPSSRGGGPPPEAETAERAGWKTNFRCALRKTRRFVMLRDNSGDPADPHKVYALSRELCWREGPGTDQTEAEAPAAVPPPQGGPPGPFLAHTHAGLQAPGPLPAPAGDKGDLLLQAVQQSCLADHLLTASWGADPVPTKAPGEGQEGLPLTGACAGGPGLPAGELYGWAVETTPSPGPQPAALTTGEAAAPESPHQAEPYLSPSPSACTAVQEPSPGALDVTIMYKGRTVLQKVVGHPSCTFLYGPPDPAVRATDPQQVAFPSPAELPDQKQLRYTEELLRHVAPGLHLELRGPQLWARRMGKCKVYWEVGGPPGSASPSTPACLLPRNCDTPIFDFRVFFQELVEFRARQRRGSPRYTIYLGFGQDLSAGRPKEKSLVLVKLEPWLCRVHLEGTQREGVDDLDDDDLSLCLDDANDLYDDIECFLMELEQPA
| Strand | log fluorescence |
| --- | --- |
| TTAGAACTGGGTCTCGATTAGTGCTAG | 0.922 z-score |
| TTCCTTCTGCCTGTCCATTCGTGCTAG | 0.607 z-score |
| TCAGGTTTCGGTTTCGGTTAGTGCTAG | 15.2 z-score |
| TTAGGACTAGGACTGGGTTAGTGCTAG | 0.587 z-score |
| TTAGGTTTCGGGACTGAGTTAGTGCTA | 3.38 z-score |
| GACGGTTACGGGACTGGGGACGTGCTA | -0.537 z-score |
| TCAAGTCTCATATTTATACTGTGCTAG | 0.85 z-score |
| GACGGTTTCGGTTTCGTGACGTGCTAG | 14.2 z-score |
| GACGGACTGGGGTATCTGGACGTGCTA | -0.689 z-score |
| GACGGTTTCGGTTTCGGGAGGTGCTAG | 14.3 z-score |
| TTAGATATCAGACAGGATTAGTGCTAG | -0.245 z-score |
| GACGGACTGCTTTTACTGACGTGCTAG | -0.363 z-score |
| TTAGATTTCAGTTTCGATTAGTGCTAG | 9.57 z-score |
| GACGAACTGGACACTGGGGACGTGCTA | -0.492 z-score |
| GACCGTATCGGTATCGGGACGTGCTAG | 1.2 z-score |
| GACGAACTGAGACTGGACACGTGCTAG | -0.063 z-score |
| GACGGTGCCGGTTTCGGGACGTGCTAG | 2.17 z-score |
| TCCCTTATAAATAGCACAGGGTGCTAG | 0.591 z-score |
| GACGGTATCCTTATCCTGCCGTGCTAG | 0.0803 z-score |

Sample 3
Target: CCNA2, cyclin fold, Cln2 fusion (human)
Method: yeast growth competition, sequencing
Matrix: yeast
Setting: strong parent motif
Reference: not given
Reading: higher = stronger binding
Starting sequence: RBL2 docking peptide (human); STTRRRLFVENDS
| Variant | normalised enrichment score |
| --- | --- |
| KTTRRRLFVENDS [S1K] | 5.83 |
| STTRRRLFVENDN [S13N] | 4.71 |
| STSRRRLFVENDS [T3S] | 5.33 |
| STTRRRLCVENDS [F8C] | 1.56 |
| STTRRRMFVENDS [L7M] | 1.34 |
| STTRRRLFVENDF [S13F] | 5.98 |
| STTRRRLFVENFS [D12F] | 5.19 |
| SITRRRLFVENDS [T2I] | 4.59 |
| STTRTRLFVENDS [R5T] | 2.01 |
| STTCRRLFVENDS [R4C] | 4.42 |
| STTRRCLFVENDS [R6C] | 5.09 |
| SQTRRRLFVENDS [T2Q] | 5.25 |
| STTRRDLFVENDS [R6D] | -0.00284 |
| STTRRRLFVENDW [S13W] | 5.39 |
| STTRRHLFVENDS [R6H] | 1.06 |
| STTRRRCFVENDS [L7C] | 0.486 |
| STTRRRLSVENDS [F8S] | 0.413 |
| STTRRRKFVENDS [L7K] | 0.199 |
| STTRRRLFVRNDS [E10R] | 3.34 |
| STTRRRLFVPNDS [E10P] | 6.44 |
| STTRRRLFVENCS [D12C] | 5.76 |
| STTRRSLFVENDS [R6S] | 2.75 |
| STTRRRLFKENDS [V9K] | 6.31 |
| STTRRRQFVENDS [L7Q] | 0.378 |
| STTRRRLFVQNDS [E10Q] | 4.89 |

Sample 4
Target: Fragile X messenger ribonucleoprotein 1, C-terminal low-complexity region (Fmr1, Mus musculus, UniProt P35922)
Method: RNA Bind-n-Seq
Form: RNA
Matrix: in vitro
Concentration: 200 nM
Setting: whole 134-nt RNA, ends assumed
Added: 150 mM LiCl
Reference: input library
Reading: higher = stronger binding
Library: 7-deaza-guanosine replaces G
All sequences stand within: GGGAGUUCUACAGUCCGACGAUC … UGGAAUUCUCGGGUGUCAAGG
| Strand | log2 enrichment |
| --- | --- |
| UUGGAUGAAGAUGGCAAAGUCCUGACCCCGGAGGAGCUGCUCUACCGGGUAAGGGGGCCUCCUCUGCCAGACCCUAGAGACCUCUCUGGG | -1.55 |
| GUCCUGUGCUACACAUCGUAUGUACCGAAUCGGGGAAAAAGGAAAAAGGGAAAAAGGGGAAAGUAUUAUGUUACGCCGUUCGGAUCUGCA | 0.546 |
| CCUGUGCUACACAUCGUAUGUACCGAAUCGGGGAAAAAAAGGGGUUUUUUUGGGGAGGGGAAAGUAUUAUGUUACGCCGUUCGGAUCUGC | -1.55 |
| CCUGUGCUACACAUCGUAUGUACCGAAUCGGGGUUUUUGGGGUUUGGGGUUUUUUUGGGGAAAGUAUUAUGUUACGCCGUUCGGAUCUGC | -0.726 |
| AAGUCCUGUGCUACACAUCGUAUGUACCGAAUCGGCCCCCGGGCCCCCGGCCCCCGGAAAGUAUUAUGUUACGCCGUUCGGAUCUGCACU | -1.32 |
| CCUCAAGUCCUGUGCUACACAUCGUAUGUACCGAAUCGGGGCGGCGGGGCGGGAAAGUAUUAUGUUACGCCGUUCGGAUCUGCACUUCCA | -1.2 |
| CGGCCCUGGUGGCAUGCGGGGAGGAAGAGGUGGCCUCAUGGAUCGUGGUGGUCCCGGUGGAAUGUUCAGAGGUGGCCGUGGUGGAGACAG | -0.151 |
| AGUCCUGUGCUACACAUCGUAUGUACCGAAUCGGGAAAAAAAGGGAGGGAAAAAGGGAAAGUAUUAUGUUACGCCGUUCGGAUCUGCACU | -1.06 |
| UCCUGUGCUACACAUCGUAUGUACCGAAUCGGGGAAAAAGGGGAAAAAGGGAAAAAGGGAAAGUAUUAUGUUACGCCGUUCGGAUCUGCA | 0.3 |
| UAACAUUAGAGGAGGAUCUGAUGGAUAUGGCAGUGGACGUGGAUUUGGGGAUGGCUAUAAUGGGUAUGGAGGAGGACCUGGAGGUGGCAA | 0.474 |
| UCAAGUCCUGUGCUACACAUCGUAUGUACCGAAUCGGUUUGGUUUUUUUGGUGGAAAGUAUUAUGUUACGCCGUUCGGAUCUGCACUUCC | -1.06 |

Other studies, line by line
| Molecule | target | assay | system | setting | how to read | quantity | result |
| --- | --- | --- | --- | --- | --- | --- | --- |
| PhoQ, residues 284 288 289 292 302 303 SNSSNI | PhoP, residues 12 14 15 18 19 NHFIF (Escherichia coli, UniProt P23836) | Sort-seq, measured: YFP reporter | E. coli | PhoQ-PhoP variant library, added: 10 µM Mg2+ | reference: high Mg2+ state, higher = stronger signaling | fold induction | 9.27 |

Excerpt of the above (sample 3):
| Variant | normalised enrichment score |
| --- | --- |
| STSRRRLFVENDS [T3S] | 5.33 |
| STTRRRLCVENDS [F8C] | 1.56 |
| STTRRRMFVENDS [L7M] | 1.34 |
| STTRRRLFVENDF [S13F] | 5.98 |
| STTRRRLFVENFS [D12F] | 5.19 |
| SITRRRLFVENDS [T2I] | 4.59 |
| STTRTRLFVENDS [R5T] | 2.01 |
| STTCRRLFVENDS [R4C] | 4.42 |
| STTRRCLFVENDS [R6C] | 5.09 |
| SQTRRRLFVENDS [T2Q] | 5.25 |
| STTRRDLFVENDS [R6D] | -0.00284 |
